Measurements gathered from unrelated publications.
Parts stem from different laboratories: compare values within a part only.

Set 1 — technique: protein binding microarray; molecule type: double-stranded DNA, one strand shown; sample: in vitro; tested at: not given; reference: not given; reading: higher = stronger binding
Target: Histone acetyltransferase KAT6A, winged helix 1, GST fusion (KAT6A, Homo sapiens, UniProt Q92794, residues 1-85)
Setting: 8-mer, flanks averaged, mean of 2 arrays, mostly near background
Residues (chain): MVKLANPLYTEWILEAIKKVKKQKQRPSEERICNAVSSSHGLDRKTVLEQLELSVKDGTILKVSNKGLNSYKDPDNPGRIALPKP
Oligonucleotide | E-score
AGCTAGGG | -0.156
AATACGCC | 0.201
GCGGGGGA | 0.236
GGAAAACA | -0.133
CCGAACGA | -0.0533
ACGTCTCG | -0.0411
CGAACCCG | 0.358
ATAGAAAC | -0.12
CCTGGTAG | -0.16
TGCCAGAA | -0.229
ATTCAAAA | -0.0601
CAGGACAA | -0.244
GCAGAGAA | -0.0966
CCATGACA | -0.16
CACATAAC | -0.101
CAACTATG | -0.12
ACCCCCCC | -0.0615
AACAACGC | 0.0681
AGTCCATC | -0.107
CTTCATTA | -0.13
TAATCCGA | 0.0264
TAGGAAGA | -0.265
ATGAGCGG | 0.153
ACTAATTA | -0.147

Set 2 — technique: RNA Bind-n-Seq; molecule type: RNA; sample: in vitro; tested at: not given; setting: RNA with constant flanks, ends assumed; reference: input RNA pool; reading: higher = stronger binding
Target: RING finger protein unkempt homolog, zinc fingers 1-6, GST-SBP tag (UNK, Homo sapiens, UniProt Q9C0B0, residues 30-357)
Constant ends, left off below: GGGAGUUCUACAGUCCGACGAUC … CAACAGAGGAUUGAGCAUCA
Construct (chain): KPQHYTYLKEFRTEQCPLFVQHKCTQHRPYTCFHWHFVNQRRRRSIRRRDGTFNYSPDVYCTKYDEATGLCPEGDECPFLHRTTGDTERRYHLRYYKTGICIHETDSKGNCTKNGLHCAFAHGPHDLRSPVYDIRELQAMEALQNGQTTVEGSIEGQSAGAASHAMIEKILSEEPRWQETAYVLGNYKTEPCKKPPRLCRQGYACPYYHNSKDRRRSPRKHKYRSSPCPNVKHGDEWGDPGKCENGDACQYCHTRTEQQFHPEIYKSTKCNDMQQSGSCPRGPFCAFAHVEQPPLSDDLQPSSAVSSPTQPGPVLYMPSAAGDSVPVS
Oligonucleotide | bound/input enrichment
UCUUUUUCCUGGACUACAGACUGCAAUCCCCGUAGGGAGUGGCAUUGCUCACAUAGACAUCCGUAUUUUACUGAGGGUAUCAGCACCAUGGCCACUGAAGACCAGACAUAGGGUUGGGAA | 1.84 ratio
UUAAAGAUCAGCAAUUUAAAGAAAAUUUUAAAAGGCAUCUUGGAUUACAAUCAUGAGAUUUCCGGACAGCAGAUUAAUGAUUUCACCCUUCCUGACGUGAACCUCAUUGGGGAGCAUUCG | 0.262 ratio
CAGCCGCGUAUACCACUCCUGGGGCAGGGCGGGAGAGUAUUGUCUGUCCUAGAGUUUUGCCCGCACCUUUUUAAAGUGAUCUUAGCUUGCUUCUUAUGUGGGAACUGCCUAGACUUCCUA | 0.147 ratio
ACUGACCAAUGCACCAAAUGAAUGCUAAAAUGCACUUUAGGUUUGUUUUUGCACUUCUGACCGUAUCUUUCAACCACGAUGUACUGGGCAAGAAUUUGAAAUACAGGAUUUAUGAGGAAC | 0.266 ratio
GUCAAGGCCAAAACACUAAGAAAACUGAUCCAACAAACAUUUAGACAAUUUGCCAACCUUAACCGAGAAGAAAGUAUUCUGAAAUUCUUUGAGAUCCUGUCUCCAGUCUACAGAUUUGAU | 3.75 ratio
GUAAUCAGCAGAGACAUUGAUACUGCUGCCAAAUUCAUUGGUGCAGGUGCUGCAACAGCCGGAGUUGCUGGUUCUGGUGCUGGUAUUGGAACAGUCUUUGGCAGUCUUAUCAUUGGUUAU | 0.195 ratio
ACAGAAGUGGAUCGAGCAAGUCACUGGUCGAAGUUUUGGUGACAAAGACUUCCGGACAGGACCCGAAAAUGGGAUCCUCCUUUGCGAGUUGCUGAAUGCUAUAAAGCCAGGACUUGUUAA | 0.119 ratio
AGCUUUGCUGAGCCAUCAAGGUCUAAUGGAAGCAUGGUUCGGCAUUCUUCAUCUCCAUAUGCCGUAUAUCCUUCGGAUAAGCCUUUCCUUAAUAGUGAUCUACGACGCUCCCCAAGUAAG | 0.372 ratio
UGGUUUCUAACAGCUGAAGGCAAUGAAUGGCUACUUCAAGGACAGAUAGCAGCUGGAGAUACCGAGAACAUUUCCAGUCAACCAACAAUUUCACUACAAAUUCCUGAUGAUUGCUUAUCA | 0.158 ratio
CAGAAUAAUAAGCUGAAUAGAAUCUGACCAUUGGCUUUCACCUGGCCAGGACCUUCUAUGCCGCUCUCCUUUUGUGGCCCAUGUGCUGCAUCCUCUGCCCUCAGUGUGCAACUGGCCCCC | 0.555 ratio
GAUGCAGUUAAGGAAGAAAAUCUGAAGCUAAAAUCAGAAAACCAAGUUCUUGGACAAUAUACCGAAAAUCUCAUGUCAGCUUCUAGUGUUUUUCAAACAACUGACACAAAAAGCAAAAGA | 0.0768 ratio

Set 3 — technique: RNA Bind-n-Seq; molecule type: RNA; sample: in vitro; tested at: 365 nM; reference: no-protein control; reading: higher = stronger binding
Target: RNA binding protein fox-1 homolog 2, RRM domain, GST-SBP tag (RBFOX2, Homo sapiens, UniProt O43251-10, residues 100-194)
Setting: natural RNA segment, single round, ends assumed
Constant ends, left off below: GGGAGUUCUACAGUCCGACGAUC … UGGAAUUCUCGGGUGCCAA
Construct (chain): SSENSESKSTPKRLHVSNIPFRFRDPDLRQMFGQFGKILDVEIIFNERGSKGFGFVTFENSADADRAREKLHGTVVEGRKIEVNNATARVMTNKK
Oligonucleotide | RBNS enrichment (R)
CCAGUGAAGUAUGCUCUUGGGUCUUUGGCAAAGCUGGAAAGAGAAAGGGCCUCCUUGUUCUUUCCCAGAAACAUUCAGUGGCUUGGACCAACCCCUGAGUAUAUACAUUG | 0.551
GAAUGGGACCUCCUGCCAUUCAGUGAGCACUAGGACAGCUGGGACCUCCUGCCAUUCAGUGAGCACUAGGACAGCUGGGACCUCCUGCCAUUCAGUGAGCACUAGGACAG | 0.354
CAAGCCCAAAGUGUCUUUUCAGGAGGGCCAGUAGCCCCCAGGCUGCUGCCCACAUUAGCACAGUUUUCCCAGGGCCUCCCUGACUGCACCAGUAGGGUCUGGACCCCAGC | 0.397
CAGUCAUCAGUGUGCCCUUGAAGCUAAGAGGGGAUUCCAGCCCAGGAAACGUCCCUAGGUAGGCUUGGUCAUUUGUGGGUUUUUCCCAGGCCUGACGUUAAGAAUGGUGA | 0.398
CCUAUGGGAAACCUAGGUUUCAUUAUAGCUGAAGUAGACACAUGAAUUAAAAACAUUACAAAUGAAAUUUGUUUGUUUUUUCUCUUUUAUUAAUGUGUAUAAAUGUGAGU | 0.396
CUUUUGGGGGUUAUUCUACCAACAAACAGUCCAUUGGAAAGAAAACAGUCCCUGGAAUUAACAGAUCAGAAUGUUCACACUGGUUAAUCUUUUUUUAACAAUGAGCAUGA | 0.398
CUGUGCAGGAGGAGGGUUGCUAGUAGGUUCUGCUUCUGCUUCUCUCUGCUCCACUGUCUGCAGCCCAGAUCCUGUUGGGCCUGGCUGGUGUCUGGUAACCAUGGGCCUCC | 0.441
UGGUCACCCCCGGGCCCAGCCUGGCUGGCGAGAAACAAACACGGUUUGAGAGGCUGUGGCACACUGAGGACCACACAGAUGGAGGCAGCCAAGUGAGGUCCCUGGAGGUU | 0.431
ACCCGCCCCAUACCAGCCCUUGGCUUGGGUCCUUUUUCUCCAGAAAAACAUAUAUUUUGCAGAGCUCCACAUACAGAAACACAUUAUUUUGCAGAAAUAAGUGUUUGUAA | 0.577
CUCGGCUCCCUGCCGAGGCUCAGCUCUUGGGCAAGUUGGGACUUGGACCUGGCCUGAAGACUGAUUGGCUGGAAGGUUGGUUGCAGGAAAGACCGGAGCCCCGCAGGAGU | 0.474
UUAAAAUCUUGCUCACCUUCAGAGCAGAGGGAAUACCUAUCUUCAGAUAUCCGUCCAUUUUCAUCUCUUAAUUGUAGUCAAAAGUAUGACUUGAGAGUGUUGCUCUGGUA | 0.39
UAAGUUCAGAAGUCUUAAGUGUGCAAGCGUUUAUGUGACCGUGCCAUUCCAGAGUGCAUCAGAACUGUCAUCCCUUCCAGGACCUUCUCAGGAGUAACACAUCAGGUAUG | 0.275

Set 4 — technique: RNA Bind-n-Seq; molecule type: RNA; sample: in vitro; tested at: 200 nM; setting: whole 134-nt RNA, ends assumed; together with: 150 mM KCl; reference: input library; reading: higher = stronger binding
Target: Ras GTPase-activating protein-binding protein 1, full length (G3BP1, Homo sapiens, UniProt Q13283)
Chain of UniProt Q13283 (whole entry, looked up): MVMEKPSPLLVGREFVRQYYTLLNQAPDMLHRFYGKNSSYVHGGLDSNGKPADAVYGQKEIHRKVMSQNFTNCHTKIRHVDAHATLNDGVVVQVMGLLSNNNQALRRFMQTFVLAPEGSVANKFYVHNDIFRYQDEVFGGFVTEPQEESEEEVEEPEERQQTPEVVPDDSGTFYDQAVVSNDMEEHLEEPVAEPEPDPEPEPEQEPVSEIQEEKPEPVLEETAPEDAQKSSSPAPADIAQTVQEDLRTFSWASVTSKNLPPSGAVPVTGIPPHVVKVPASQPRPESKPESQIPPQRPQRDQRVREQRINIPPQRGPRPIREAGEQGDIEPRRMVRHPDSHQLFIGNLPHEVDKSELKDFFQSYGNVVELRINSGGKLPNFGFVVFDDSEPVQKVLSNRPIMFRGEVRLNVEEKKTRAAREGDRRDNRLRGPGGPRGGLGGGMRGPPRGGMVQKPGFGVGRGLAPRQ
Constant ends, left off below: GGGAGUUCUACAGUCCGACGAUC … UGGAAUUCUCGGGUGUCAAGG
Oligonucleotide | log2 enrichment
CCUCAAGUCCUGUGCUACACAUCGUAUGUACCGAAUCGGAGGUGGUUUUUGGAAAGUAUUAUGUUACGCCGUUCGGAUCUGCACUUCCAG | -0.189
AGUCCUGUGCUACACAUCGUAUGUACCGAAUCAAACCCCCCCAAAUUUAAACCCAAAAAAGUAUUAUGUUACGCCGUUCGGAUCUGCACU | -0.252
UGGCCCUGGUGGCAUGCGGGGAGGAAGAGGUGGCCUCAUGGAUCGUAGUGGUCCCGGUGGAAUGUUCAGAGGUGGCCGUGGUGGAGACAG | 0.531
ACCAUGCAGGUGGGCAUCUUUGGGAAGUGGGGCAAGGGGGGGAUAGGGAGGGGGGUAACACUUUGGGAACAGGUAAACCCAGGUCGUUUC | 1.01
UAUCCCCUAUGAGGCACCACGUAAGACCUCCUGCCCUUAGCUCUCUUGCUCACCACCCAAGAACCUCAGGACAGAAGCGAGAGCCCAUUG | 0.908
UGGCCCUGGUGGCAUGCGGGGAGGAAGAAGUGGCCUCAUGGAUCGUGGUGGUCCCGGUGGAAUGUUCAGAGGUGGCCGUGGUGGAGACAG | 0.328
UCCUGUGCUACACAUCGUAUGUACCGAAUCAAAGUGUGUGUGUGUGUGUGUGUGUGAAAAAAGUAUUAUGUUACGCCGUUCGGAUCUGCA | 0.963
AGUCCUGUGCUACACAUCGUAUGUACCGAAUCGGGAAAGGGAAAGGGUUUUUUUGGGAAAGUAUUAUGUUACGCCGUUCGGAUCUGCACU | -0.29
CAAGUCCUGUGCUACACAUCGUAUGUACCGAAUCGGGGAAAGGGAAAGGGAAAGGAAAGUAUUAUGUUACGCCGUUCGGAUCUGCACUUC | -0.136
CAAGUCCUGUGCUACACAUCGUAUGUACCGAAUCGGAAAAAGGAGGAAAAAAAGGAAAGUAUUAUGUUACGCCGUUCGGAUCUGCACUUC | -0.742
UCCUGUGCUACACAUCGUAUGUACCGAAUCGGGGUUUUUUUGGGGUUUGGGGAAAGGGGAAAGUAUUAUGUUACGCCGUUCGGAUCUGCA | 0.893
ACCCUGCAGGUGGGCAUCUUUGGGAAGUGGGGCAAGGGGGGGAUAGGGAGGGGGGUAACACUUUGGGAACAGGUGGUCCCAGGUCGUUUC | 1.39
GGGGUGAGCACAGACAGGAUCGCAGGGAGAGGCCGUAUUAAUUAGCCUGGCUCCCCAGGUUCUGGAACAGCUUUUUGUCCUGUACCCAGU | 0.00666
CACAGACAACACGCACCCACACAGACACAGAGGGAAGGGGUUGGGUUGGGGACAGGGUGCACAGCAGGGCGGGGUAGGACCCCAGCCCCU | 1.87

Some of these lines once more (set 4):
Oligonucleotide | log2 enrichment
CAAGUCCUGUGCUACACAUCGUAUGUACCGAAUCGGGGAAAGGGAAAGGGAAAGGAAAGUAUUAUGUUACGCCGUUCGGAUCUGCACUUC | -0.136
AGUCCUGUGCUACACAUCGUAUGUACCGAAUCAAACCCCCCCAAAUUUAAACCCAAAAAAGUAUUAUGUUACGCCGUUCGGAUCUGCACU | -0.252
ACCCUGCAGGUGGGCAUCUUUGGGAAGUGGGGCAAGGGGGGGAUAGGGAGGGGGGUAACACUUUGGGAACAGGUGGUCCCAGGUCGUUUC | 1.39
UCCUGUGCUACACAUCGUAUGUACCGAAUCGGGGUUUUUUUGGGGUUUGGGGAAAGGGGAAAGUAUUAUGUUACGCCGUUCGGAUCUGCA | 0.893
UCCUGUGCUACACAUCGUAUGUACCGAAUCAAAGUGUGUGUGUGUGUGUGUGUGUGAAAAAAGUAUUAUGUUACGCCGUUCGGAUCUGCA | 0.963
CACAGACAACACGCACCCACACAGACACAGAGGGAAGGGGUUGGGUUGGGGACAGGGUGCACAGCAGGGCGGGGUAGGACCCCAGCCCCU | 1.87
GGGGUGAGCACAGACAGGAUCGCAGGGAGAGGCCGUAUUAAUUAGCCUGGCUCCCCAGGUUCUGGAACAGCUUUUUGUCCUGUACCCAGU | 0.00666
